Measurements gathered from unrelated publications.
Every numbered part comes from another study and shows a few of its results, in no order. Substitutions count along the parent as printed.

Set 1 — target: CCNE1, cyclin fold, Cln2 fusion (human); technique: yeast growth competition, sequencing; matrix: yeast; setting: weak parent motif; baseline: not given; direction: higher = stronger binding; measurement: normalised enrichment score
Starting sequence: MASTL docking peptide (human); PMIAKNLMCELDE
N6Q: 0.068
A4S: -0.0816
M8A: -0.0453
K5Y: 0.037
K5D: 0.348
N6I: 0.532
I3G: 0.178
L7M: -0.573
C9I: -0.121
E10W: 0.113
N6H: -0.151
N6V: 0.27
I3C: 0.264
K5S: -0.31
M2V: 0.0916
D12V: 0.103
M8N: -0.251

Set 2 — technique: RNA Bind-n-Seq; molecule type: RNA; matrix: in vitro; tested at: not given; baseline: input RNA pool; direction: higher = stronger binding; measurement: bound/input enrichment
Target: RING finger protein unkempt homolog, zinc fingers 1-6, GST-SBP tag (UNK, Homo sapiens, UniProt Q9C0B0, residues 30-357)
Sequence of UniProt Q9C0B0 (30-357, looked up): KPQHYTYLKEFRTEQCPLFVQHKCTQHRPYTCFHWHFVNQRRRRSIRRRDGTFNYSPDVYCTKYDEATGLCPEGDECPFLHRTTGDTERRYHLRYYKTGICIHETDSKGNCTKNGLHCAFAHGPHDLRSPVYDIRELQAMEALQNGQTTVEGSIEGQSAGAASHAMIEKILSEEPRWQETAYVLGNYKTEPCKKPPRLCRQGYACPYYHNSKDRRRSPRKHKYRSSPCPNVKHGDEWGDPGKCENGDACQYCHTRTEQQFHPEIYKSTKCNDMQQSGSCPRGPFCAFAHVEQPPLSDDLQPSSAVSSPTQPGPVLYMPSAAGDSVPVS
Setting: RNA with constant flanks, human-mouse chimeric sites, ends assumed
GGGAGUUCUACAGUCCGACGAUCAAAGGCAAAAAGGGCAGCUGUGUCAUUUCAUAAGUAACUCUGGGGGAGGGAAAUUCUGUUCUUUUGUUUUUAGUUUUCCCAAAUGAAGCCAAAGUGUGUGUUGAAGAACUGAGAAAAAAUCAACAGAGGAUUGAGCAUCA: 0.563 ratio
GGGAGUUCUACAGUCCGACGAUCUCCUUGGACCCCAGUCAUAUAGGUGACCUGCAAAAAGCAGACACCAGUAGUCAAGGUGCUUUAGUGUUUCUCUCAAAGGACUACGAAAUAGAAAAUCAAAAUCCUCUGGCCUCUCCUACGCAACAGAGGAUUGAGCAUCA: 2.17 ratio
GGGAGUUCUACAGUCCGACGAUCCUGAGGAUACCACUGAAAGAGACAUUAAAGAAUCAUUUGAGGGCUCUGUUCGUGCAAGAAUAGUCACUGAUCGGGAAACUGGUUCUUCCAAAGGGUUUUGGUUUUGUGACUUUAAUAGUGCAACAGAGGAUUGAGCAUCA: 0.425 ratio
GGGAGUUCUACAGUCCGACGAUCCGCUGGCCCAAGCUGAUGGACUCUGAUGGCCUCCAUCUCUCAGGCACGUGUGCCUUCUCUUAGUCCCUUCUGGGUUGUCACAAAGCUUCUCAGUACUGUGGUUUGAAAGCACCAGCUUUGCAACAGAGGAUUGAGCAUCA: 0.161 ratio
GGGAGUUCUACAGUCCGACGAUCUUCAAAGAAAAGGGCAGCUGUGUCAUUUCAUAAGUAAAACUGCAUCCGGGAAAUUCUGUUCUUUUGUUUAAUUUUCCCCCAAAUGAAGCCAAAGUGUGUGUUGAAGAACUGAGAAAAAAUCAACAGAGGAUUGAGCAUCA: 0.171 ratio
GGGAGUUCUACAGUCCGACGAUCCUCAUGGCUGCAGAAACAGGAAGUGGAAAAACUGGUGCAUUUAGUAUUCCAGUUAUCCAGAUAGUGUAUGAAACUCUGAAAGACCAACAGGAAGGAAAGAAAGGGAAAACAACUAUUAAACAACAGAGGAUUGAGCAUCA: 0.494 ratio
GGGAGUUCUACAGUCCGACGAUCGGGACUGAUUCAUCCCAAGGACAGGCCACCCCAUUUGAUGCCUGGACUGACGACAGUAUGGAAGGGCCUAGUCAAAAUGUUGAAGCUGAGUCAAUUCAAGAUAAUGCGAGUAUGGAAGAGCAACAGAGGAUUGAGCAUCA: 0.474 ratio
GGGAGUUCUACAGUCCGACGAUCUGGCGCCUGCGCUCCCCACUCGUGUUUUUAAGUGUAUUUUUAUAAGACAUGUGUAUUUGUAAUAGAUCUUUUGUUACAUAAUGCUGAAAUGCUACUGGAGAUUAUGAAAAAUGUUUCAAUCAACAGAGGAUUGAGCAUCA: 0.238 ratio
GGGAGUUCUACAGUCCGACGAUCGUGCCCUCCUUCUCGCUGCGGAGCCCGAGCUGGGAACCAUUCCGGGACUGGUACCCUGCACACAGCCGCCUCUUCGAUCAAGCUUUCGGGCUGCCCCGGUUGCCCGAUGAGUGGUCGCAGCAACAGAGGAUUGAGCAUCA: 0.0612 ratio
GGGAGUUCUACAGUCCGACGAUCUCCCAAAUCCAGCAGCUAGAAGGAGCCAAUUGUUUGUCACUCCACACACAGGGAAGGCGAUAACAUUGUACAUUGGUUUACAUUUUUUCCCCCUGUGUUUUCUAGGGGAGGUCAUAGUGCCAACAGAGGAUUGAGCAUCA: 0.606 ratio
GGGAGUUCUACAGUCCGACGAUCAAAGAACCUCUCUCUGAUGAAGAUGAGGAAGACAAUGAUGAUGUUGAACCCAUUUCUGAAUUUCGAUUUGUGCCCAGUGAUAAAUCAGCAUUGGAGGCGAUGUUCACUGCAAUGUGCGAGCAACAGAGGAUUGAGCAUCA: 0.204 ratio

Set 3 — technique: protein-binding microarray; molecule type: double-stranded DNA, one strand shown; matrix: in vitro; tested at: 940 nM top; setting: 60-bp whole probe; added: salmon DNA 0.4 mg/ml; baseline: random background probes; direction: higher = stronger binding; measurement: fitted relative affinity; all sequences stand within: GCCTAGCAC … GTCTTGATTCGCTTGACGCTGCTG
Target: Interferon regulatory factor 5, full length, phosphomimetic (IRF5, Homo sapiens, UniProt Q13568-2, residues 1-514, S451D/S453D/S456D/S462D)
TTAGGTCTCGGATTGGGTTAGTGCTAG: 1.85 z-score
GACGATCTCAGTCTCGAGAGGTGCTAG: 0.81 z-score
GACGGTATCGGGTATTGGGACGTGCTA: 4.52 z-score
TGGGATTTTGTCCTCCCCTCGTGCTAG: -0.144 z-score
TCATTTCCATTTTCTGAAACTGTGCTA: 1.3 z-score
GAAGGACTGGGACTGGGGACGTGCTAG: -0.539 z-score
GACGGACTGGGTCTCGGGACGTGCTAG: -0.233 z-score
GACGGTCTCGGGTATCGGGACGTGCTA: 2.27 z-score
TTAGGACTGGGACTGGATTAGTGCTAG: -0.358 z-score
GACGGTTTCGGTTCCGGTACGTGCTAG: 14 z-score
GACGAACTGAGACTGGAGTCGTGCTAG: -0.263 z-score
TGTACTTTCTATCTCTGTTTGTGCTAG: 3.35 z-score
TTACATCTCAGTTTCGATTAGTGCTAG: 8.81 z-score
GACGATCTCAGACTGGAAACGTGCTAG: -0.166 z-score
GACGGTCTGGGGTTTCGGGACGTGCTA: 1.94 z-score
TCACATTTAGAAAATGGAACTGTGCTA: -0.0839 z-score
TCACTTTTGCTTTACTGACTGTGCTAG: 1.52 z-score
TCAGCTTTCCTGATGGTACTGTGCTAG: 0.134 z-score
TCACTTTTCATTTTCTTACTGTGCTAG: 2.43 z-score
GTAGAAAATTCATGTTATAAGTGCTAG: -0.504 z-score
TCATTTTTCTAATTTACACTGTGCTAG: 1.18 z-score

Set 4 — technique: RNA Bind-n-Seq; molecule type: RNA; matrix: in vitro; tested at: 365 nM; baseline: no-protein control; direction: higher = stronger binding; measurement: RBNS enrichment (R)
Target: RNA binding protein fox-1 homolog 2, RRM domain, GST-SBP tag (RBFOX2, Homo sapiens, UniProt O43251-10, residues 100-194)
Setting: natural RNA segment, single round, ends assumed
Residues (chain): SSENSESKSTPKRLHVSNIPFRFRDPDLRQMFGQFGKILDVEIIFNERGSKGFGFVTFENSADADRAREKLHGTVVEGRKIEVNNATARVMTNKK
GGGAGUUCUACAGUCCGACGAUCUCUCCCAGUGACCGGCCGCUGUGUGUCCGCUCUGGGCCGACGCUUCCAUCCAGACCACUUCACCUGCACAUUCUGCCUGCGCCCACUCACCAAAGGCUCCUUCCAGGAGCUGGAAUUCUCGGGUGCCAA: 0.8
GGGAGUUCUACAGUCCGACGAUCUCUUAUUUAAUUGUCCUGUUCCUUCCCACUCCCCGCCUCCUAGGAUGUUAGCCCAAGCUCAGGGUAGGCCCAGGGGGCUGGGAGAAAUGAAGCCACCCAUGGGGACUGGGUGGAAUUCUCGGGUGCCAA: 0.658
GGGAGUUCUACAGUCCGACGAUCUCUCUCACUGAAUAAUGUUUACUGUACAGUCUUCCCAAGGUGAUUCCUGCGACUGCAGGCACUGGUCAUUUUCUCAUGUAGCUGUCUUUUCAGUUAUGGUAAACUCUUAAUGGAAUUCUCGGGUGCCAA: 0.492
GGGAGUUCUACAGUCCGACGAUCUUGGAGGCUGUGUUACAUGCAUGCCCUAAAGCAGUCAGUCUGUUAGUAUGAGCAAGACAUCUGAAGUACACAGUUGCUUUUAGGCUUGUAUAGUUAUUUUCUACACAUGCUGGAAUUCUCGGGUGCCAA: 0.812
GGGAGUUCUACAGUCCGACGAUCUCCCUCCCCACCACCAUUCCUUGCUUCCUGCCCAGCCCGCUUCACUUCUCCCGGGACCAUCCUGAUAUGGCGGUUCAUUCAGAAUGACCUGGAGGGGAAGGUGGGUGGGCUGGAAUUCUCGGGUGCCAA: 0.435
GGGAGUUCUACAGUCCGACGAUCUAAACCUCCAGCCACCAAGCCUGACGCCAGUCUCUUCUGAUCUGCAAGAUUUGGGCUGUGUGCAAGGUGGCUUUCUUUCCUGGUGGGGGAAGGGAGGGGCCGAGGCUAAUUGGAAUUCUCGGGUGCCAA: 0.587
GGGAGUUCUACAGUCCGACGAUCAAGGCUGCUGCUGUGUCAUUCGGUGCCUUUGUGAGUUUCCUUGCUGUAGGUGAUUCUUGACUGUGGGGAUUGGAAUUUGAGGCAGAAGUUACCAUCCCUACUACAUUUUUUGGAAUUCUCGGGUGCCAA: 0.722
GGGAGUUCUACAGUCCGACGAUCUGGACUAUGCUGGCAAGGACUUUGUUUACGAUCAAAUUGUACUAGUGUCUGCAGGGUUUGUCAGUACUCGUCAAAGCCAAGUCCAAUUAAAAAAAAAAGUCUUUGCCCUCUGGAAUUCUCGGGUGCCAA: 0.636
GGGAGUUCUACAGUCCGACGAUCCUCUGAGCAGUGGGGUGAGGGGCCUAAGUGGCCCCGGUCGGAGGAGCCUGGAGCAGAAAUGGCAGCCCCAUCCUUCCUCCAGCCACUACCCCAAGCUACAGUGGGGGCCCUGGAAUUCUCGGGUGCCAA: 0.246
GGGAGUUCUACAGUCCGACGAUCAUAUUAAAUGAGCAUUUGACCUGUAGAUACAUAGUGUGCCGUUUGGCCAGAGCUCCUGGUGUCAAAUGCUGGGAACAGGAGUCUUCUUACAAAUUAUUUUUCUCCUCUUUUGGAAUUCUCGGGUGCCAA: 0.388
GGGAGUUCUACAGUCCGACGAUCUCAGACGGGUUCCGGGGGCCUCAGAGGUGAUCCGGGAGUCGAGCAGCACAACAGGGAUGGUCGUCGGCAUUGUGGCUGCUGCCGCCCUCUGCAUCUUGAUCCUCCUGUACUGGAAUUCUCGGGUGCCAA: 1.68
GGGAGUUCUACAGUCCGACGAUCGAAGAGAAUACCCCCUCUCUACCCCUGCUCCAAGACACUGUAGAUGCUAGUGUCGGAGUGUUCUCUGUAACGCGACAGUUCCUUCUGUUGCAAUAGCCCCCCUGCAACACUGGAAUUCUCGGGUGCCAA: 0.793

A few entries again (set 1):
L7M: -0.573
C9I: -0.121
E10W: 0.113
N6H: -0.151
N6V: 0.27
I3C: 0.264
K5S: -0.31
M2V: 0.0916
